# Measurements gathered from unrelated publications.
# Parts stem from different laboratories: compare values within a part only. Positions count from the first letter of the parent shown.

# Series 1 — target: CREB3L2, bZIP domain (human); method: DHFR protein complementation; medium: yeast; relative to: wild-type JUN-FOS pair; direction: higher = stronger binding
# Notes: single substitutions, most at no-binding floor
# Starting sequence: JUN, bZIP domain (human); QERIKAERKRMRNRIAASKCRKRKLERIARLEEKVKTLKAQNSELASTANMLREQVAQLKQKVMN; partner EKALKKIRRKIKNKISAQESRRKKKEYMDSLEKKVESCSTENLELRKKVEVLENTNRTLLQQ
Variant,binding fitness [natural log]
K34F,-1.43
Q55S,-1.49
Q55Y,-1.51
V56D,-1.56
A40R,-1.51
Q41E,-1.35
T48V,-1.5
R30P,-1.49

# Series 2 — method: protein binding microarray; form: double-stranded DNA, one strand shown; medium: in vitro; concentration: not given; relative to: not given; direction: higher = stronger binding
# Target: Histone acetyltransferase KAT6A, both winged helices, GST fusion (KAT6A, Homo sapiens, UniProt Q92794, residues 1-181)
# Notes: 8-mer, flanks averaged, mean of 2 arrays, mostly near background
# Residues (chain): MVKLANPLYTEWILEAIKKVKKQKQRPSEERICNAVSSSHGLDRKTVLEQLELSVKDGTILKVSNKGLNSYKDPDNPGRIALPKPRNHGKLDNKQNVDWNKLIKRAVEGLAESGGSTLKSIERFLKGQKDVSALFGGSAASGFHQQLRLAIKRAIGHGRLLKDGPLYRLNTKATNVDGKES
Strand,E-score
GTCTAAAA,-0.0105
ACGGGCAA,0.29
AGGGCCGC,0.253
GTATCCGA,0.152
AAGATCGG,0.151
GTGGGAGA,-0.223
CTTCATGC,0.0418
ACAGATCA,-0.0333

# Series 3 — method: protein-binding microarray; form: double-stranded DNA, one strand shown; medium: in vitro; concentration: not given; direction: higher = stronger binding
# Target: Max dimerization protein 1, bHLH-zipper, MAX partner unstated (MXD1, Homo sapiens, UniProt Q05195, residues 56-136)
# Notes: k-mer, scored over probes, only values ≥0.25
# Target sequence (chain): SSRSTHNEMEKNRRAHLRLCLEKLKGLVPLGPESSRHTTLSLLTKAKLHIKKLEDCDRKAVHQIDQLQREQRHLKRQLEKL
Strand,E-score
ACGCGGTC,0.27
ACCTCCCC,0.276
GGGTGGAA,0.253
CACCACGC,0.396
ACGCTAAC,0.259
CTGTGCGC,0.261
CCCACCCA,0.351
CATCGTGG,0.306

# Mixed results — starting sequence: viral docking peptide; KGVKRKLFAEDSS
Variant,target,assay,system,setting,how to read,endpoint,result
KGVKWKLFAEDSS [R5W],"CCND1, cyclin fold, Cln2 fusion (human)","yeast growth competition, sequencing",yeast,strong parent motif,"relative to: not given, higher = stronger binding",normalised enrichment score,0.261

# For quick reference, copied from above (series 2):
Strand,E-score
GTCTAAAA,-0.0105
ACGGGCAA,0.29
